Published values from different studies.
Lines come from different studies, so protocols differ. ± marks the error that the study gave.

| Compound | target or system | assay | test system | conditions | measurement | value |
| --- | --- | --- | --- | --- | --- | --- |
| CN[C@](C)(C[18F])C(=O)O | SK-OV-3 tumour model |  | host not given, liver | 2 h, tumour-bearing | tracer uptake | 2.2 %ID/g |
| O=C(O)CCC(NP(=O)(O)OCCC[C@@H](NC(=O)CCC(NC(=O)CCCCCNC(=O)CCCCCNC(=O)c1ccc([18F])cc1)C(=O)O)C(=O)O)C(=O)O (some centres unmarked) | CWR22Rv1 tumour model |  | host not given, tumour | intravenous, 2 h, tumour-bearing | tracer uptake | 1.86 %ID/g |
| COc1ccc(CNc2nc(N3CCC[C@H]3CO)ncc2C(=O)NNC(=O)c2cnc(N3CCC[C@H]3CO)nc2NCc2ccc(OC)c(Cl)c2)cc1Cl | Salmonella typhimurium |  | TA1535 | 250 µg/plate, 48 h, with: rat liver S9 | revertant count | 23 ± 2 |
| CCC(=O)N(C)c1ccc(Cl)c(Cl)c1 | Salmonella typhimurium | Ames test | TA98 | 0.10 mg/plate, with rat liver S9 | revertants | 15 ± 2 revertants/plate |
| COc1cc(C(=O)NCCOCCOCCOCCNC(=O)c2ccc([18F])nc2)ccc1NC(=O)C1NC(CC(C)(C)C)C(C#N)(c2ccc(Cl)cc2F)C1c1cccc(Cl)c1F (centres unmarked) | SJSA-1 tumour model |  | host not given, lung | 1 h, tumour-bearing | tracer uptake | 1.17 %ID/g |
| O=C(O)CCC(NP(=O)(O)OCCC[C@@H](NC(=O)CCC(NC(=O)c1ccc([18F])cc1)C(=O)O)C(=O)O)C(=O)O (some centres unmarked) | CWR22Rv1 tumour model |  | host not given, bone | intravenous, 2 h, tumour-bearing | tracer uptake | 0.5 %ID/g |
| C[C@@](O)(C(F)F)[C@H](NC(=O)c1ccc(C#CC#CC2CC2)cc1)C(=O)NO |  |  | dog, plasma | oral, 50 mg/kg | half-life | 1.8 h |
| COc1ccc(CNc2nc(N3CCC[C@H]3CO)ncc2C(=O)NN)cc1Cl | Salmonella typhimurium |  | TA102 | 62.5 µg/plate, with: rat liver S9 | revertant count | 270 ± 5 |

A few entries again:
| Compound | target or system | assay | test system | conditions | measurement | value |
| --- | --- | --- | --- | --- | --- | --- |
| O=C(O)CCC(NP(=O)(O)OCCC[C@@H](NC(=O)CCC(NC(=O)CCCCCNC(=O)CCCCCNC(=O)c1ccc([18F])cc1)C(=O)O)C(=O)O)C(=O)O (some centres unmarked) | CWR22Rv1 tumour model |  | host not given, tumour | intravenous, 2 h, tumour-bearing | tracer uptake | 1.86 %ID/g |
